{"data": "Measured values from different studies", "note": "Parts stem from different laboratories: compare values within a part only. Several values in a cell are separate wells, animals, samples, runs or records.", "chain of UniProt P28482 (whole entry, looked up)": "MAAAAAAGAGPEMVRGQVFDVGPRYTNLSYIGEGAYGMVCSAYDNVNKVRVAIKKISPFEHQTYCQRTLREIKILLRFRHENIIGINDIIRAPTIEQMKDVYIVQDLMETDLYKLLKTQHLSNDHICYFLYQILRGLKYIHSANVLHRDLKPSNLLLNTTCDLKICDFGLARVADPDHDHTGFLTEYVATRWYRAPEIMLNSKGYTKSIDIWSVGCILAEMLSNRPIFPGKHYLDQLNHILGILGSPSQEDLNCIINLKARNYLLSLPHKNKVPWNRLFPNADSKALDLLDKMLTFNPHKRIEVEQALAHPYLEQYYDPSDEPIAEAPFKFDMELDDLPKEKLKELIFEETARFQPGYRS", "chain of UniProt Q13237 (whole entry, looked up)": "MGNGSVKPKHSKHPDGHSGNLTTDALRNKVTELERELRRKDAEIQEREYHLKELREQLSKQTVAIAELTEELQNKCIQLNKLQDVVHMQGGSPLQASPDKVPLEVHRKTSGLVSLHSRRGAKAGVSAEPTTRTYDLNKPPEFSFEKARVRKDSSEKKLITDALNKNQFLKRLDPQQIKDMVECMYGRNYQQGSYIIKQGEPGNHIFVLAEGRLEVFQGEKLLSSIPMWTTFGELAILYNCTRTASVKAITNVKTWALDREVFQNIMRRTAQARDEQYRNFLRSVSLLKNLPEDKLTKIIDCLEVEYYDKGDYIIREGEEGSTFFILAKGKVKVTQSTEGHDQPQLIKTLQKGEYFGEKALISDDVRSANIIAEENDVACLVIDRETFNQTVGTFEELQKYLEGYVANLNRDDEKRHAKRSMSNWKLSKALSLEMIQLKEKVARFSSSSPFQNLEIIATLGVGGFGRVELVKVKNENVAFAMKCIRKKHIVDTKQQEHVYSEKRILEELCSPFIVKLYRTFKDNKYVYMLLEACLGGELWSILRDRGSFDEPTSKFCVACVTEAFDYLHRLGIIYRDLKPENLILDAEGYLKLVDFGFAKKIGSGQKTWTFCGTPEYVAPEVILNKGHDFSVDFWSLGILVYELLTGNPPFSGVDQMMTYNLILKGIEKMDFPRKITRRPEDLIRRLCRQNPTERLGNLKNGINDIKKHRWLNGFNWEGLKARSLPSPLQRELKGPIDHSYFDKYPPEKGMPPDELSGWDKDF", "chain of UniProt Q6P2M8 (whole entry, looked up)": "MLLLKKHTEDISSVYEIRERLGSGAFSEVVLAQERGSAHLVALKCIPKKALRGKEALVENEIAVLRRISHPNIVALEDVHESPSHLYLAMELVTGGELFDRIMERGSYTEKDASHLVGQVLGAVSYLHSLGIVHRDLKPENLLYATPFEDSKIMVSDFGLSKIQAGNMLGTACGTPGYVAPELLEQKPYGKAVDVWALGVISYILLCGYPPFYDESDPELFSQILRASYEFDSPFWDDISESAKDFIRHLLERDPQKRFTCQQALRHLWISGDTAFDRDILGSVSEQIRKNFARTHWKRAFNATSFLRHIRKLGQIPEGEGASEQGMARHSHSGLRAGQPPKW", "chain of UniProt Q9H4B4 (whole entry, looked up)": "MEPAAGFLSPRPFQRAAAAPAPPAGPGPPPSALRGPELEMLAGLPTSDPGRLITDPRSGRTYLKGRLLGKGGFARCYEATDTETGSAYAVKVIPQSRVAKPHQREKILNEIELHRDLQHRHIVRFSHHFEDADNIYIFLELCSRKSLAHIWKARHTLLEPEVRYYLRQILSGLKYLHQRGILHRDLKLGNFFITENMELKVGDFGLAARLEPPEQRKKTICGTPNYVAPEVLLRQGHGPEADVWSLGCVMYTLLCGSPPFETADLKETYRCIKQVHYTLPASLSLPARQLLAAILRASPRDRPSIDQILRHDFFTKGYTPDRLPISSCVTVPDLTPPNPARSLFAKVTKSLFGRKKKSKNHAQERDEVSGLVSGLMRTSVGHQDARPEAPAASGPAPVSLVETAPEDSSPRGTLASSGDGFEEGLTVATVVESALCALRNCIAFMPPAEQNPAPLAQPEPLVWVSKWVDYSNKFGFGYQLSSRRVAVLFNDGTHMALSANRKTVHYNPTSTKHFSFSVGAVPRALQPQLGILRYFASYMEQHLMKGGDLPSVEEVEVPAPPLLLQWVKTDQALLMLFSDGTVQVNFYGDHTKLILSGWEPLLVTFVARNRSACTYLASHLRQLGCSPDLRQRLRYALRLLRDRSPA", "chain of UniProt Q02750 (whole entry, looked up)": "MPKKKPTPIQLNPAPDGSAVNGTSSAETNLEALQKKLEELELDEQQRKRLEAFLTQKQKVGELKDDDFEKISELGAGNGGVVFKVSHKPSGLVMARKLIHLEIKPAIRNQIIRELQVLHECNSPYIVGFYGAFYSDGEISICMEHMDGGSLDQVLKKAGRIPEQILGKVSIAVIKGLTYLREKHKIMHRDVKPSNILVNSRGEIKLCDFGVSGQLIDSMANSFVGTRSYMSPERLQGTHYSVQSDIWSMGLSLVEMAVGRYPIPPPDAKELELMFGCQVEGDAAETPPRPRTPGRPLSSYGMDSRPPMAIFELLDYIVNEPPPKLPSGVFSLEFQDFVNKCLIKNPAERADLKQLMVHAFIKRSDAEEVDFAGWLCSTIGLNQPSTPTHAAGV", "chain of UniProt P06493 (whole entry, looked up)": "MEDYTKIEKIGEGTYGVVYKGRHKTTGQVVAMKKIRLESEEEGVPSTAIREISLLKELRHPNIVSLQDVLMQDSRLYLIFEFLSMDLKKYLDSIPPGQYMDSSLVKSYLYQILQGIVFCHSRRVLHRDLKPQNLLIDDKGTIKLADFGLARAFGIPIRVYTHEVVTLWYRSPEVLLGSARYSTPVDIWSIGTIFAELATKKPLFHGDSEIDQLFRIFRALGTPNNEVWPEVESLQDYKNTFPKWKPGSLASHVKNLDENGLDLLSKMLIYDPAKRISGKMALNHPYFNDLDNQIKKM", "chain of UniProt Q9Y5S2 (whole entry, looked up)": "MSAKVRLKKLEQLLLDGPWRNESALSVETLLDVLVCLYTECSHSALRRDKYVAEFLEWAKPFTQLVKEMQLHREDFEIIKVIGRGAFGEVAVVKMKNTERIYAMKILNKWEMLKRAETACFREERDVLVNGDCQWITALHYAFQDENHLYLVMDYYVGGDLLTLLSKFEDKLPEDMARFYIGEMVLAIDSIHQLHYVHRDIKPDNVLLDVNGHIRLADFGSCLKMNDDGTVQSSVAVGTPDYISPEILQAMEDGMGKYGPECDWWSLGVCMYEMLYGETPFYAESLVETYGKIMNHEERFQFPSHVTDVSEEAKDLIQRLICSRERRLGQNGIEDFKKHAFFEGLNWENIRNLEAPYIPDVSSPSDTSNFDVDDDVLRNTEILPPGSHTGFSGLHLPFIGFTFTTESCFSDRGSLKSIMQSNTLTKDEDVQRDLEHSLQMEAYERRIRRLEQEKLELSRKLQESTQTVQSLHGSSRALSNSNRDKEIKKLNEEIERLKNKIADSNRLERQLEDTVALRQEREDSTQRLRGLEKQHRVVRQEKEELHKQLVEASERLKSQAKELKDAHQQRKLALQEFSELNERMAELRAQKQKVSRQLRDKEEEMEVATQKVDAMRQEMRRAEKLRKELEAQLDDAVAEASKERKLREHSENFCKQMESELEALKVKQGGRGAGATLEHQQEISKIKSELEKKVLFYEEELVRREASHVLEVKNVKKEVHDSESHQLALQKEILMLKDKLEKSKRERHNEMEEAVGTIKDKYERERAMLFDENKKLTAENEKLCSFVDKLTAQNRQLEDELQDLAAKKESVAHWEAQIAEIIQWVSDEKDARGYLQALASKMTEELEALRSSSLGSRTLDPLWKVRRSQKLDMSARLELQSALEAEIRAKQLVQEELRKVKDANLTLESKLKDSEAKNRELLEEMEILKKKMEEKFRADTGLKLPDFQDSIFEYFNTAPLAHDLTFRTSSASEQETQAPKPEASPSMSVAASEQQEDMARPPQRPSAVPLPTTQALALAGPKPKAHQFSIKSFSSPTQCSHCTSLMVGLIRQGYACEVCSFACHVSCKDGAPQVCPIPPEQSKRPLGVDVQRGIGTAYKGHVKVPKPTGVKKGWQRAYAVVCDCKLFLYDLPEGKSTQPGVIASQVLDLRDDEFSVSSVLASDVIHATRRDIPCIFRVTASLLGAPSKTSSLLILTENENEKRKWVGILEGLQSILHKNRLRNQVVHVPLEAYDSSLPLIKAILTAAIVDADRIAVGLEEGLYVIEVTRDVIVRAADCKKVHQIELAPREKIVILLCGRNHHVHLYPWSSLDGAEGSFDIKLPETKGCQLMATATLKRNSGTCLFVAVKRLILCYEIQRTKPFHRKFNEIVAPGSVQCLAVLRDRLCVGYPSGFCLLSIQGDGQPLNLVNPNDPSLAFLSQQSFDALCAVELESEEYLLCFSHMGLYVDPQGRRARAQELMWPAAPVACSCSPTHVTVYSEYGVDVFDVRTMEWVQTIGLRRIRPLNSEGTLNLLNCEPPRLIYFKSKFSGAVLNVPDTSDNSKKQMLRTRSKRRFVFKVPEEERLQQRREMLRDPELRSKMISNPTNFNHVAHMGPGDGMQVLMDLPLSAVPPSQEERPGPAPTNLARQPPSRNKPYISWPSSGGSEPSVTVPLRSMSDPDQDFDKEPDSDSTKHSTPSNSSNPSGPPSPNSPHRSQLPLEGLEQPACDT"}
{"data": "Series 1", "organism": "Plasmodium berghei", "action": "inhibitor", "cells": "Huh-7", "strain": "liver stage", "concentration": "10 µM", "time": "24 h", "relative to": "untreated control"}
{"SMILES": "CC(=O)OCC(=O)[C@@]1(O)CC[C@H]2[C@@H]3CCC4=CC(=O)C=C[C@]4(C)[C@@]3(F)[C@@H](O)C[C@@]21C", "infection rate": "99.3%"}
{"SMILES": "O[C@@H](c1cc(C(F)(F)F)nc2c(C(F)(F)F)cccc12)[C@H]1CCCCN1 (racemic)", "infection rate": "70.9%"}
{"SMILES": "O=C(c1ccc(F)cc1)C1CCN(CCn2c(=O)[nH]c3ccccc3c2=O)CC1", "infection rate": "58.3%"}
{"SMILES": "OC[C@H]1O[C@@H](O[C@@H]2[C@@H](CO)OC(O)(CO)[C@H]2O)[C@H](O)[C@@H](O)[C@H]1O (mixture of isomers)", "infection rate": "105%"}
{"SMILES": "Cc1cn[nH]c1", "infection rate": "94%"}
{"SMILES": "CS(=O)(=O)c1ccc([C@@H](O)[C@@H](CF)NC(=O)C(Cl)Cl)cc1", "infection rate": "91.8%"}
{"SMILES": "CC(C)NCC(O)c1cc(O)cc(O)c1 (centres unmarked)", "infection rate": "94.7%"}
{"SMILES": "Cc1ccccc1OCC(O)CO (centres unmarked)", "infection rate": "89.3%"}
{"SMILES": "CO[C@@]12[C@H](COC(N)=O)C3=C(C(=O)C(C)=C(N)C3=O)N1C[C@@H]1N[C@@H]12", "infection rate": "13.1%"}
{"data": "Series 2", "Structure (SMILES)": "COc1cc2ncnc(Nc3ccc(O)c(Br)c3)c2cc1OC", "observed": "enzyme activity", "action": "inhibitor", "concentration": "0.5 µM", "relative to": "control"}
{"target": "MINK1 (Homo sapiens, UniProt Q8N4C8)", "remaining activity": "64.4%"}
{"target": "Cyclin-dependent kinase 9, with cyclin K (CDK9, Homo sapiens, UniProt P50750)", "remaining activity": "91.1%"}
{"target": "MAP2K1 (Homo sapiens, UniProt Q02750)", "remaining activity": "98.2%"}
{"target": "PRKG2 (Homo sapiens, UniProt Q13237)", "remaining activity": "84.1%"}
{"target": "Cyclin-dependent kinase 1, with cyclin A (CDK1, Homo sapiens, UniProt P06493)", "remaining activity": "101%"}
{"target": "CDC42BPB (Homo sapiens, UniProt Q9Y5S2)", "remaining activity": "98%"}
{"target": "RPS6KA4 (Homo sapiens, UniProt O75676)", "remaining activity": "93.8%"}
{"target": "PLK3 (Homo sapiens, UniProt Q9H4B4)", "remaining activity": "95.2%"}
{"target": "MAPK14 (Homo sapiens, UniProt Q16539)", "remaining activity": "87.3%"}
{"target": "CAMK4 (Homo sapiens, UniProt Q16566)", "remaining activity": "95.6%"}
{"target": "MAPK1 (Homo sapiens, UniProt P28482)", "remaining activity": "102%"}
{"target": "PNCK (Homo sapiens, UniProt Q6P2M8)", "remaining activity": "103%"}
{"target": "CLK3 (Homo sapiens, UniProt P49761)", "remaining activity": "54.1%"}
{"data": "Series 3", "cell line": "mouse MPNST tumor cells", "method": "high-content nuclear imaging", "item": "cell number", "concentration": "10 µM", "time": "12 h", "notes": "mean of 2 replicates", "relative to": "plate mean", "reading": "higher = more cells"}
{"SMILES": "CCN(CCCc1ccccc1)CCCc1ccccc1", "nuclei count": "2.81 z-score"}
{"SMILES": "CN(C)C(=O)NC1(c2ccccc2)CCN(CCC[C@]2(c3ccc(Cl)c(Cl)c3)CCCN(C(=O)c3ccccc3)C2)CC1", "nuclei count": "-6.37 z-score"}
{"SMILES": "CN1CCCN=C1/C=C/c1cccc(O)c1", "nuclei count": "0.119 z-score"}
{"SMILES": "CCC(CC)(NC(=O)C(C)C)C(=O)N[C@@H](CCCN=C(N)N)C(=O)NC1(C(=O)NC(c2ccc(F)cc2)c2ccc(F)cc2)CCCC1", "nuclei count": "-1.3 z-score"}
{"SMILES": "CC[C@H](C)C(=O)O[C@H]1C[C@@H](C)C=C2C=C[C@H](C)[C@H](CC[C@@H]3C[C@@H](O)CC(=O)O3)[C@H]21", "nuclei count": "-4.72 z-score and -4.42 z-score"}
{"SMILES": "CNCc1ccccc1-c1csc([C@@H](C)Nc2nc(C)nc3cc(OC)c(OC)cc23)c1", "nuclei count": "-5.36 z-score"}
{"SMILES": "CC1CCN(CCCC(=O)c2ccc(F)cc2)CC1", "nuclei count": "0.577 z-score"}
{"SMILES": "CCN(C(=O)c1ccccc1OC)c1cc2c(cc1N1CCNCC1C)n(C)c(=O)n2C (centres unmarked)", "nuclei count": "0.417 z-score"}
{"SMILES": "Nc1ncnc(Nc2ccc(OCc3ccccc3)c(Cl)c2)c1/C=N/OCCN1CCOCC1", "nuclei count": "-0.129 z-score"}
{"data": "Series 4", "target": "Alpha-1B adrenergic receptor (ADRA1B, Homo sapiens, UniProt P35368)", "observed": "binding", "method": "radioligand binding", "concentration": "10 µM", "chain of UniProt P35368 (whole entry, looked up)": "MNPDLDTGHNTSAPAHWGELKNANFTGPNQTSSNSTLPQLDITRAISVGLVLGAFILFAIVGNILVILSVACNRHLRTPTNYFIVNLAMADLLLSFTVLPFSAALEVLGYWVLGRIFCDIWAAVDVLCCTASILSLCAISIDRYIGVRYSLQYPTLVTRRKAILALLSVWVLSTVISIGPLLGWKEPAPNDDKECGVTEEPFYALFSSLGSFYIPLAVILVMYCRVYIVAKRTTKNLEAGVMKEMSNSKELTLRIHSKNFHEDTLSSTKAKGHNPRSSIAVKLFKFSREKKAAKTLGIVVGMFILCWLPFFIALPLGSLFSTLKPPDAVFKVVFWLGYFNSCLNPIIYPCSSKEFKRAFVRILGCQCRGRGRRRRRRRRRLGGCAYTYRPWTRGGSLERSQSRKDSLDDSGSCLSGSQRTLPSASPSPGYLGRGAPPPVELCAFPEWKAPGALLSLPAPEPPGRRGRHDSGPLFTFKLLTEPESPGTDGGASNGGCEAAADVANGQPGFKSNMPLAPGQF"}
{"SMILES": "Nc1c(C(=O)NCc2ccc(C(=O)NCCCC3CCCCC3)cc2)cnn1-c1ccccc1", "inhibition [%]": 8.69}
{"SMILES": "CC(=O)Nc1c(F)cc(C(=O)N[C@H]2CC[C@H](O)CC2)cc1O[C@@H](C)c1ccccc1", "inhibition [%]": -0.75}
{"SMILES": "CN(C)C(=O)Cn1cc(-c2nc([C@@](C)(c3ccc(-c4cnc(N)nc4)cc3)C3CC3)no2)cn1", "inhibition [%]": 2.84}
{"SMILES": "O=C(O)c1cc(-c2ccc(C3CCNCC3)cc2)c2ccc(-c3ccc(C(F)(F)F)cc3)cc2c1", "inhibition [%]": 85.8}
{"SMILES": "Cc1nc(Cc2cccc(C(F)(F)F)c2)sc1-c1ccc(C(N)=O)nc1", "inhibition [%]": 24.6}
{"SMILES": "CC1=C(C#N)[C@@H](c2ccc3[nH]nc(C)c3c2)C(C#N)=C(c2ccc(Cl)cc2)N1", "inhibition [%]": 21.7}
{"SMILES": "O=C([C@H]1C[C@H](O)CN1c1ccc(Cl)cc1)N1CC2COCC(C1)N2Cc1ccc(Cl)cc1", "inhibition [%]": 0.94}
{"note": "For quick reference, copied from above (series 3):"}
{"SMILES": "CC1CCN(CCCC(=O)c2ccc(F)cc2)CC1", "nuclei count": "0.577 z-score"}
{"SMILES": "Nc1ncnc(Nc2ccc(OCc3ccccc3)c(Cl)c2)c1/C=N/OCCN1CCOCC1", "nuclei count": "-0.129 z-score"}
{"SMILES": "CN(C)C(=O)NC1(c2ccccc2)CCN(CCC[C@]2(c3ccc(Cl)c(Cl)c3)CCCN(C(=O)c3ccccc3)C2)CC1", "nuclei count": "-6.37 z-score"}
{"SMILES": "CCN(C(=O)c1ccccc1OC)c1cc2c(cc1N1CCNCC1C)n(C)c(=O)n2C (centres unmarked)", "nuclei count": "0.417 z-score"}
{"SMILES": "CC[C@H](C)C(=O)O[C@H]1C[C@@H](C)C=C2C=C[C@H](C)[C@H](CC[C@@H]3C[C@@H](O)CC(=O)O3)[C@H]21", "nuclei count": "-4.72 z-score and -4.42 z-score"}
